Experimental data from different studies.
Every numbered part comes from another study and shows a few of its results, in no order. “And” joins repeats or separate records; there may be more than shown.
UniProt P53350, sequence (whole entry, looked up): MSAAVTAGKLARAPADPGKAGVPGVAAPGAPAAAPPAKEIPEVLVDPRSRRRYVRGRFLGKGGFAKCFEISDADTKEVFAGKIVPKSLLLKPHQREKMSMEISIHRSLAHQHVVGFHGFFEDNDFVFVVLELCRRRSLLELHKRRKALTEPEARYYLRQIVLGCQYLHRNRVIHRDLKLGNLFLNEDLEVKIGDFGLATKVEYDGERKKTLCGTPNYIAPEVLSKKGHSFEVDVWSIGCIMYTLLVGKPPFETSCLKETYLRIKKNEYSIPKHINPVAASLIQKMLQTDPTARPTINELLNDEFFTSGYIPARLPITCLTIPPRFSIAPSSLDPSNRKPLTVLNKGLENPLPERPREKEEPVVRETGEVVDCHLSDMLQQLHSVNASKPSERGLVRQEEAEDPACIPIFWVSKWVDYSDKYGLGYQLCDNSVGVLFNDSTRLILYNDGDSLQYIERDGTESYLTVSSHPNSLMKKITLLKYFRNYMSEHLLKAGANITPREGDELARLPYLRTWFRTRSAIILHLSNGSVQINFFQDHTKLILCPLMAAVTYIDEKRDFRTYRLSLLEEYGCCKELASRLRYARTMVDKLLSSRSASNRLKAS
UniProt Q02750, sequence (whole entry, looked up): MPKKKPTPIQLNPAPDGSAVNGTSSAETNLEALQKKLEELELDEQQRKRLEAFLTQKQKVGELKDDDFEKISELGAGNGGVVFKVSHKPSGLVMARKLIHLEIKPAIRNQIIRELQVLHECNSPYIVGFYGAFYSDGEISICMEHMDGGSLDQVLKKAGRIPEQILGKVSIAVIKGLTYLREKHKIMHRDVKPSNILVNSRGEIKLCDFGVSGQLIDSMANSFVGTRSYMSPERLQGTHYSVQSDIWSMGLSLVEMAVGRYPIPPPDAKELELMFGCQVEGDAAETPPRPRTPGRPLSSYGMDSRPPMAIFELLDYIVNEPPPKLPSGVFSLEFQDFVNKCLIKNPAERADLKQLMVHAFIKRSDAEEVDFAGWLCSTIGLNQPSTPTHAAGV
UniProt Q15349, sequence (whole entry, looked up): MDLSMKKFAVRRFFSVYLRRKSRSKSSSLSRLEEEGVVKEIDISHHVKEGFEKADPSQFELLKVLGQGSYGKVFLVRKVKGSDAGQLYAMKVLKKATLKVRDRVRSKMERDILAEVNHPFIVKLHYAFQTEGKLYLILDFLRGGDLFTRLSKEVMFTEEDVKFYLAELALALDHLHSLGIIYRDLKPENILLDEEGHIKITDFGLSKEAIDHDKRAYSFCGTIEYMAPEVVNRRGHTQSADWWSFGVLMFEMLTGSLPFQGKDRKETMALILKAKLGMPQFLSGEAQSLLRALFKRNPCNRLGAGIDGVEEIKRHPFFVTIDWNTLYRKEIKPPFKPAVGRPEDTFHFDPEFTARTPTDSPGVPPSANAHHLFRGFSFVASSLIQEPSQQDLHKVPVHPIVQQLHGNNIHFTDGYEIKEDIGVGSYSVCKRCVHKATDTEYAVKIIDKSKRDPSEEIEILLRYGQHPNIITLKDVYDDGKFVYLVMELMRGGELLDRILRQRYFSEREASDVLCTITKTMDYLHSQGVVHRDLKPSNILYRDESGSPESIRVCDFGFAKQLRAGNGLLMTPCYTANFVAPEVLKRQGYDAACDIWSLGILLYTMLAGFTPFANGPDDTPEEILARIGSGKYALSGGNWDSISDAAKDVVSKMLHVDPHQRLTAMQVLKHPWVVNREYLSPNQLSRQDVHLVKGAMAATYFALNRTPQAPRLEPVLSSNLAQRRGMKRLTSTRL
UniProt O94804, sequence (whole entry, looked up): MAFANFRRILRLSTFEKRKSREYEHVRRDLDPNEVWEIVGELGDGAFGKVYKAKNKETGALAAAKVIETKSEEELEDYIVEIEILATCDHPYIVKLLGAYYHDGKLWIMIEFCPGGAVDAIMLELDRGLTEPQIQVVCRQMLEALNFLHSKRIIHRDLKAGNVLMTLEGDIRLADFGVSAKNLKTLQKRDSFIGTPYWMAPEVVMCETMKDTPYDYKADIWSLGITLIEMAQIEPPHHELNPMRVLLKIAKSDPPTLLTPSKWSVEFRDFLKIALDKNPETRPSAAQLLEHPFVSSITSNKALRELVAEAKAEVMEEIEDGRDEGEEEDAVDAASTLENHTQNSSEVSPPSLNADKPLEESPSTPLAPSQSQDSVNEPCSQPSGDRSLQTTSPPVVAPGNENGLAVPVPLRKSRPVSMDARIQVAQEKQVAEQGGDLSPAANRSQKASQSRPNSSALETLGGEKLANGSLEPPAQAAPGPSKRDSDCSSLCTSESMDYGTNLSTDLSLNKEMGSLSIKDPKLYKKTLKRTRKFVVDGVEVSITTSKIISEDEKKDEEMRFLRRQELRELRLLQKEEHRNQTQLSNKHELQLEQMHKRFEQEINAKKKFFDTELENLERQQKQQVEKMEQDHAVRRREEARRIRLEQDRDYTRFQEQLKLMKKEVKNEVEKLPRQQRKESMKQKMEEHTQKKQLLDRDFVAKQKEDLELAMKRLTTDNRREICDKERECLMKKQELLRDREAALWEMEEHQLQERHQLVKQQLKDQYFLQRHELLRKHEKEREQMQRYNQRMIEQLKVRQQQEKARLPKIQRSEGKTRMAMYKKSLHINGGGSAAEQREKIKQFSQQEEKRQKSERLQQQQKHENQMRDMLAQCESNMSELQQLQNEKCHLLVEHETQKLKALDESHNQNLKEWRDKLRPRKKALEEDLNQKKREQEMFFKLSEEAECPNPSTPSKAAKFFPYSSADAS
UniProt Q6P3R8, sequence (whole entry, looked up): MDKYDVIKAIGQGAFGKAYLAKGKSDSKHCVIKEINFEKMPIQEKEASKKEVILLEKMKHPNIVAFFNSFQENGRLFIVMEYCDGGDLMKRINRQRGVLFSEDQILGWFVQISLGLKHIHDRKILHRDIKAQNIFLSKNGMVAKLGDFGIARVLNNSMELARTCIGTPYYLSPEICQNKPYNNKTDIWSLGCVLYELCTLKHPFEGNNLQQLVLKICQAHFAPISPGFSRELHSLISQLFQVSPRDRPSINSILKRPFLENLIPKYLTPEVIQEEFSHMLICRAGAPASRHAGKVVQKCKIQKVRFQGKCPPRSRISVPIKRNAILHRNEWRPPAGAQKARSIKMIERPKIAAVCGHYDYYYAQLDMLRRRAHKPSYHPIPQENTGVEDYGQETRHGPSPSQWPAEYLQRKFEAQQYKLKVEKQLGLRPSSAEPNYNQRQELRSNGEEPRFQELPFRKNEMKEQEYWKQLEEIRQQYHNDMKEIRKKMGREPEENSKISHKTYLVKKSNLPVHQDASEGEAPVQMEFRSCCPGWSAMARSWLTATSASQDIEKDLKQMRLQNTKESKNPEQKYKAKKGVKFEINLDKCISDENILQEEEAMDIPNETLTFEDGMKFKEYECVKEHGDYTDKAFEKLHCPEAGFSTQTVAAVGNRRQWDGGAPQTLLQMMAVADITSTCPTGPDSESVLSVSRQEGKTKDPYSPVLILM

Study 1
Compound: CC(C)C[C@@H]1NC(=O)[C@@H](N(C)C(=O)[C@H](CC2CCC2)NC(=O)[C@@H]2C[C@@H](F)CN2C(=O)C2(C(F)(F)F)CC(F)(F)C2)CCCCNC(=O)C2(CC2)NC(=O)[C@H](Cc2cc(Cl)ccc2Cl)N(C)C1=O
Technique: flow cytometry
| cell line | concentration | time | setting | cleaved PARP positive cells |
| --- | --- | --- | --- | --- |
| NCI-H1299 | 20 nM | 72 h | – | 0.22% and 0.54% and 0.34% |
| HCC4006 | 2000 nM | 72 h | – | 2.67% and 2.27% and 5.83% |
| HCC4006 | 20 nM | 72 h | – | 1.08% and 1.26% and 0.52% |
| NCI-H446 | 20 nM | 3 days | without Mps1 inhibitor | 24.3% and 29% and 25.1% |
| NCI-H446 | 200 nM | 72 h | – | 13.9% and 10.7% and 14.9% |
| NCI-H446 | 200 nM | 3 days | without Mps1 inhibitor | 28.6% and 23.4% and 26.8% |
| human CD34+ HSPC | 3000 nM | 24 h | – | 3.18% and 3.05% |
| NCI-H1299 | 2000 nM | 72 h | – | 2.8% and 4.53% and 4.2% |
| NCI-H446 | 2 nM | 3 days | without Mps1 inhibitor | 10.7% and 12.5% and 10.3% |
| human CD34+ HSPC | 10000 nM | 24 h | – | 2.87% and 2.26% |

Study 2
SMILES: COc1cccc(CNC(=O)c2nc3scc(COCc4ccc(C(=O)O)cc4)c3c(=O)[nH]2)c1
Concentration: 1 µM
| target | effect on | technique | remaining binding |
| --- | --- | --- | --- |
| Serine/threonine-protein kinase PLK1 (PLK1, Homo sapiens, UniProt P53350) | cell-free assay | competition with immobilised ligand | 54.1% |
| Ribosomal protein S6 kinase alpha-4, N-terminal kinase domain (RPS6KA4, Homo sapiens, UniProt O75676) | cell-free assay | competition with immobilised ligand | 100% |
| Casein kinase I isoform alpha-like (CSNK1A1L, Homo sapiens, UniProt Q8N752) | cell-free assay | competition with immobilised ligand | 94.1% |
| Cyclin-dependent kinase 19 (CDK19, Homo sapiens, UniProt Q9BWU1) | – | competition binding | 100% |
| Serine/threonine-protein kinase 10 (STK10, Homo sapiens, UniProt O94804) | cell-free assay | competition with immobilised ligand | 67.8% |
| Hepatocyte growth factor receptor (MET, Homo sapiens, UniProt P08581, M1250T) | cell-free assay | competition with immobilised ligand | 98% |
| Bone morphogenetic protein receptor type-1B (BMPR1B, Homo sapiens, UniProt O00238) | cell-free assay | competition with immobilised ligand | 64.5% |
| Serine/threonine-protein kinase Nek3 (NEK3, Homo sapiens, UniProt P51956) | cell-free assay | competition with immobilised ligand | 78.1% |
| Mitogen-activated protein kinase kinase kinase 1 (MAP3K1, Homo sapiens, UniProt Q13233) | cell-free assay | competition with immobilised ligand | 63.1% |
| Serine/threonine-protein kinase Nek5 (NEK5, Homo sapiens, UniProt Q6P3R8) | cell-free assay | competition with immobilised ligand | 100% |
| LIM domain kinase 2 (LIMK2, Homo sapiens, UniProt P53671) | cell-free assay | competition with immobilised ligand | 96.2% |
| Dual specificity protein kinase TTK (TTK, Homo sapiens, UniProt P33981) | cell-free assay | competition with immobilised ligand | 92.8% |
| Wee1-like protein kinase (WEE1, Homo sapiens, UniProt P30291) | cell-free assay | competition with immobilised ligand | 95.7% |
| Mitogen-activated protein kinase kinase kinase 3 (MAP3K3, Homo sapiens, UniProt Q99759) | cell-free assay | competition with immobilised ligand | 78.9% |
| Dual specificity tyrosine-phosphorylation-regulated kinase 1B (DYRK1B, Homo sapiens, UniProt Q9Y463) | cell-free assay | competition with immobilised ligand | 100% |
| Receptor-type tyrosine-protein kinase FLT3 (FLT3, Homo sapiens, UniProt P36888, D835V/ITD) | cell-free assay | competition with immobilised ligand | 58.4% |
| Serine/threonine-protein kinase TAO3 (TAOK3, Homo sapiens, UniProt Q9H2K8) | cell-free assay | competition with immobilised ligand | 72.3% |
| Hepatocyte growth factor receptor (MET, Homo sapiens, UniProt P08581, Y1235D) | cell-free assay | competition with immobilised ligand | 100% |
| Serine/threonine-protein kinase haspin (HASPIN, Homo sapiens, UniProt Q8TF76) | cell-free assay | competition with immobilised ligand | 92.5% |
| Non-receptor tyrosine-protein kinase TYK2, JH1 (TYK2, Homo sapiens, UniProt P29597) | cell-free assay | competition with immobilised ligand | 95% |
| MAP/microtubule affinity-regulating kinase 4 (MARK4, Homo sapiens, UniProt Q96L34) | cell-free assay | competition with immobilised ligand | 89.2% |
| Mitogen-activated protein kinase kinase kinase 19 (MAP3K19, Homo sapiens, UniProt Q56UN5) | cell-free assay | competition with immobilised ligand | 79.2% |
| Ribosomal protein S6 kinase alpha-2, N-terminal kinase domain (RPS6KA2, Homo sapiens, UniProt Q15349) | cell-free assay | competition with immobilised ligand | 100% |
| Ephrin type-A receptor 8 (EPHA8, Homo sapiens, UniProt P29322) | cell-free assay | competition with immobilised ligand | 82.5% |
| Dual specificity mitogen-activated protein kinase kinase 1 (MAP2K1, Homo sapiens, UniProt Q02750) | cell-free assay | competition with immobilised ligand | 73.5% |

Study 3
SMILES: C=CCc1ccc(O)c(-c2cc(CC=C)ccc2O)c1
Effect on: chloride current
Technique: whole-cell voltage clamp
ANO1 del476-501/E649D: Anoctamin-1 (ANO1, Homo sapiens, UniProt Q5XXA6, del476-501/E649D)
UniProt Q5XXA6, sequence (whole entry, unmodified, looked up): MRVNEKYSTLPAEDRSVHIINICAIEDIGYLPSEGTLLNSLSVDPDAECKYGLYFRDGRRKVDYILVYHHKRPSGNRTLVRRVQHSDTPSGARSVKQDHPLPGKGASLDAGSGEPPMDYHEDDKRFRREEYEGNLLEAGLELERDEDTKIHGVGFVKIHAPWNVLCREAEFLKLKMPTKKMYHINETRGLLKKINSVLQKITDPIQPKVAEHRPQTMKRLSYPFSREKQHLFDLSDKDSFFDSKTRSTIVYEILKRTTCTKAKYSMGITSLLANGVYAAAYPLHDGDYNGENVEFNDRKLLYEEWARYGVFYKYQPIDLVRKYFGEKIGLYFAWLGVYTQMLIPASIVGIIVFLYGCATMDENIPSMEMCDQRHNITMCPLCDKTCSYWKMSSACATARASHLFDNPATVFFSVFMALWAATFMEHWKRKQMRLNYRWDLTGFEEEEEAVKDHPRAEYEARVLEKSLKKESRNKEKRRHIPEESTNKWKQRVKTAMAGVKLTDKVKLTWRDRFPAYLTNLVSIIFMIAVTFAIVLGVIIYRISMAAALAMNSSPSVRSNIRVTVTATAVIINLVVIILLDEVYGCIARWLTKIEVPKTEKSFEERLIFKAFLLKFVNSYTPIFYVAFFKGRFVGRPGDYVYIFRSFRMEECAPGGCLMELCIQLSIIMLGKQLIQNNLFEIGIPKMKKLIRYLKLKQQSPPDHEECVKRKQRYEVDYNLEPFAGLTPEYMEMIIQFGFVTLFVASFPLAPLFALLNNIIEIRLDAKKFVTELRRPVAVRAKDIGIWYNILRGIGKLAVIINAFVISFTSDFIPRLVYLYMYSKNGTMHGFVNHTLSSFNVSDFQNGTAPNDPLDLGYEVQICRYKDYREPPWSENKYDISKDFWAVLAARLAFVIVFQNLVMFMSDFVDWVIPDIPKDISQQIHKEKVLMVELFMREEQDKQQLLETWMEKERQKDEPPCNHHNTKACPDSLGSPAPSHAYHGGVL
| target | mode | concentration | setting | IC50 [µM] |
| --- | --- | --- | --- | --- |
| Anoctamin-1 (ANO1, Homo sapiens, UniProt Q5XXA6, del476-501/F627A) | – | – | membrane voltage -40 mV | 20.2 |
| Anoctamin-1 (ANO1, Homo sapiens, UniProt Q5XXA6, del476-501/F646A) | – | – | membrane voltage 80 mV | 24.8 |
| Anoctamin-1 (ANO1, Homo sapiens, UniProt Q5XXA6, del476-501/M544T) | inhibitor | 60 mV holding voltage | – | 25.5 |
| Anoctamin-1 (ANO1, Homo sapiens, UniProt Q5XXA6, D383A/del476-501) | – | – | membrane voltage -80 mV | 37.3 |
| Anoctamin-1 (ANO1, Homo sapiens, UniProt Q5XXA6, del476-501/R561A) | – | – | membrane voltage 20 mV | 22.5 |
| ANO1 del476-501/E649D | inhibitor | – | E623D mutant at -20 mV | 34.4 |
| ANO1 del476-501/E649D | inhibitor | – | E623D mutant at -60 mV | 57.9 |
| Anoctamin-1 (ANO1, Homo sapiens, UniProt Q5XXA6, del476-501/K629I) | inhibitor | 40 mV holding voltage | – | 234 |
| ANO1 del476-501/E649D | inhibitor | – | E623D mutant at 80 mV | 49.3 |
| Anoctamin-1 (ANO1, Homo sapiens, UniProt Q5XXA6, del476-501/M544V) | inhibitor | 80 mV holding voltage | – | 137 |
| Anoctamin-1 (ANO1, Homo sapiens, UniProt Q5XXA6, del476-501/R541D) | inhibitor | – | R515D mutant at 40 mV | 133 |
| Anoctamin-1 (ANO1, Homo sapiens, UniProt Q5XXA6, del476-501/M544A) | – | – | membrane voltage 60 mV | 82.3 |
| ANO1 del476-501/E649D | inhibitor | – | E623D mutant at 100 mV | 56.9 |

Study 4
Medium: 1,9-decadiene/PBS
pH: 7.4
| SMILES | logD |
| --- | --- |
| CC(C)C[C@@H]1NC(=O)[C@H](CC(C)C)NC(=O)[C@@H](CC(C)C)NC(=O)[C@@H](C)NC(=O)[C@H](C(C)C)NC(=O)[C@H](C)NC(=O)[C@H](C)NC1=O | -2.37 |
| CC(C)C[C@@H]1NC(=O)[C@H](CC(C)C)NC(=O)[C@@H](CC(C)C)NC(=O)[C@H](C(C)C)NC(=O)[C@H](C(C)C)NC(=O)[C@H](Cc2cscn2)NC(=O)[C@H](C)NC1=O | -0.803 |
| CC(C)C[C@@H]1NC(=O)[C@H](CCC(=O)N2CCCC2)NC(=O)[C@H](CC(C)C)NC(=O)[C@@H](CCC(=O)N2CCCC2)NC(=O)[C@H](CC(C)C)NC(=O)[C@@H](CC(C)C)NC(=O)[C@H](CC(C)C)NC1=O | -0.312 |
| CC(C)C[C@@H]1NC(=O)[C@H](Cc2cscn2)NC(=O)[C@H](CCC(=O)N2CCCC2)NC(=O)[C@H](CC(C)C)NC(=O)[C@@H](CCC(=O)N2CCCC2)NC(=O)[C@H](CC(C)C)NC(=O)[C@@H](CC(C)C)NC1=O | -1.43 |
| CC(C)C[C@@H]1NC(=O)[C@@H](C)NC(=O)[C@H](C)NC(=O)[C@@H](C(C)C)NC(=O)[C@H](C(C)C)NC(=O)[C@H](CC(C)C)NC(=O)[C@@H](CC(C)C)NC1=O | -1.4 |
| CC(C)C[C@@H]1NC(=O)[C@H](C)NC(=O)[C@H](C)NC(=O)[C@H](CCC(=O)N2CCCC2)NC(=O)[C@H](CC(C)C)NC(=O)[C@H](CC(C)C)NC(=O)[C@@H](CC(C)C)NC1=O | -2.12 |
| CC(C)C[C@@H]1NC(=O)[C@@H](C)NC(=O)[C@@H](CC(C)C)NC(=O)[C@@H](C(C)C)NC(=O)[C@H](C(C)C)NC(=O)[C@H](CC(C)C)NC(=O)[C@@H](CC(C)C)NC1=O | 0.752 |
| CC(C)C[C@@H]1NC(=O)[C@H](C(C)C)NC(=O)[C@@H](CC(C)C)NC(=O)[C@@H](CC(C)C)NC(=O)[C@@H](Cc2cscn2)NC(=O)[C@H](CC(C)C)NC(=O)[C@@H](CC(C)C)NC1=O | 0.819 |
| CC(C)C[C@@H]1NC(=O)[C@@H](C)NC(=O)[C@H](Cc2cscn2)NC(=O)[C@H](C)NC(=O)[C@H](C(C)C)NC(=O)[C@H](CC(C)C)NC(=O)[C@@H](CC(C)C)NC1=O | -1.86 |

Some of these lines once more (study 2):
| target | effect on | technique | remaining binding |
| --- | --- | --- | --- |
| Cyclin-dependent kinase 19 (CDK19, Homo sapiens, UniProt Q9BWU1) | – | competition binding | 100% |
| Mitogen-activated protein kinase kinase kinase 3 (MAP3K3, Homo sapiens, UniProt Q99759) | cell-free assay | competition with immobilised ligand | 78.9% |
| Non-receptor tyrosine-protein kinase TYK2, JH1 (TYK2, Homo sapiens, UniProt P29597) | cell-free assay | competition with immobilised ligand | 95% |
| Mitogen-activated protein kinase kinase kinase 1 (MAP3K1, Homo sapiens, UniProt Q13233) | cell-free assay | competition with immobilised ligand | 63.1% |
| Serine/threonine-protein kinase Nek5 (NEK5, Homo sapiens, UniProt Q6P3R8) | cell-free assay | competition with immobilised ligand | 100% |
| MAP/microtubule affinity-regulating kinase 4 (MARK4, Homo sapiens, UniProt Q96L34) | cell-free assay | competition with immobilised ligand | 89.2% |
| Hepatocyte growth factor receptor (MET, Homo sapiens, UniProt P08581, Y1235D) | cell-free assay | competition with immobilised ligand | 100% |
| Serine/threonine-protein kinase TAO3 (TAOK3, Homo sapiens, UniProt Q9H2K8) | cell-free assay | competition with immobilised ligand | 72.3% |
